Measurements from different studies.
Protocols differ between the studies behind these lines. Several values in a cell are separate wells, animals, samples, runs or records. Numbers after ± are the reported error.

Compound | target or system | assay | system | setting | how to read | quantity | value
Cc1cc(Oc2nc(N3CC[C@@H](c4ccncc4)C3)ncc2F)[nH]n1 | JIMT-1 | cell growth or viability | – | – | – | IC50 | 89.1 µM
CSCC[C@H](NC(=O)[C@@H](NC(=O)[C@H](CCC(N)=O)NC(=O)[C@H](CO)NC(=O)[C@@H](N)C(C)C)[C@@H](C)O)C(=O)N[C@@H](CCCNC(=N)N)C(=O)N[C@@H](CCC(N)=O)C(=O)N[C@H](C(=O)N[C@@H](C)C(=O)N[C@H](C(=O)N1CCC[C@H]1C(=O)N[C@@H](CC(C)C)C(=O)N[C@@H](CC(C)C)C(=O)N[C@@H](Cc1c[nH]c2ccccc12)C(=O)N[C@@H](Cc1ccccc1)C(=O)N[C@@H](Cc1c[nH]c2ccccc12)C(=O)N[C@H](C(=O)NCC(=O)N[C@@H](CO)C(=O)N[C@@H](CC(C)C)C(=O)NCCOCCOCCOCCOCCOCCOCCOCCOCCOCCOCCOCCOCCC(=O)N[C@@H](CS)C(N)=O)[C@@H](C)O)C(C)C)[C@@H](C)O | H358 lung adenocarcinoma | cell binding, phage binding, item: output/input phage | – | 10 min, 37 °C | baseline: control phage | selectivity ratio | 29 ± 6.6
CC[C@H](C)[C@H](NC(=O)[C@H](CO)NC(=O)[C@H](Cc1ccc(O)cc1)NC(=O)[C@H](Cc1ccc(O)cc1)NC(=O)[C@H](CC(N)=O)NC(=O)CNC(=O)[C@H](CO)NC(=O)[C@H](Cc1ccc(O)cc1)NC(=O)[C@H](CO)NC(=O)[C@H](CO)NC(=O)[C@H](CC(N)=O)NC(=O)COCCOCCNC(=O)CN1CCN(CC(=O)O)CCN(CC(=O)O)CCN(CC(=O)O)CC1)C(=O)N[C@@H](CC(C)C)C(N)=O [copper-64 labelled] | – | dynamic PET | mouse, tamoxifen-induced PDAC, tumor | intravenous, 0.1 µg/mouse, 4.5 min | – | tumour uptake | 14.6 %ID/mL
COc1ccccc1-c1n[nH]c2nc(NC3CCN(C(=O)Cc4ccc(F)cc4F)CC3)ncc12 | – | bead binding, competition bead pull-down, item: LINJ.02.0430 | Leishmania donovani extract | 10 µM | baseline: vehicle | relative abundance | 0.91
CC(C)[C@H](NC(=O)[C@H](CCCNC(=N)N)NC(=O)[C@@H]1CCCN1C(=O)[C@@H](NC(=O)[C@H](C)NC(=O)[C@H](Cc1ccc(O)cc1)NC(=O)[C@H](CCC(N)=O)NC(=O)[C@H](CCCCN)NC(=O)[C@H](CCCNC(=N)N)NC(=O)[C@@H]1CCCN1C(=O)[C@H](CCC(=O)O)NC(=O)[C@@H](NC(=O)[C@H](C)N)[C@@H](C)O)[C@@H](C)O)C(=O)N[C@@H](Cc1ccccc1)C(=O)N[C@@H](Cc1c[nH]c2ccccc12)C(=O)N[C@H](C(=O)N[C@@H](CC(=O)O)C(=O)N[C@@H](C)C(=O)N1CCC[C@H]1C(=O)NCC(=O)NCCOCCOCCOCCOCCOCCOCCOCCOCCOCCOCCOCCOCCC(=O)N[C@@H](CS)C(N)=O)[C@@H](C)O | HCC1359 lung squamous carcinoma | cell binding, phage binding, item: output/input phage | – | 10 min, 37 °C | baseline: control phage | selectivity ratio | 0.8 ± 0.2
CCOC(=O)C1(Cc2ccccc2)Oc2cc(F)ccc2N(Cc2ccccc2)C1=O (stereo not drawn) | L02 | cell growth or viability, CCK-8 | – | 0.78 µM, 72 h | – | inhibition | 0.46%
CC(C)CC(C(=O)N1CC2(CC1C#N)C(=O)Nc1ccccc12)N(C)C(=O)c1cc2c(F)cc(F)c(F)c2[nH]1 (stereo not drawn) | human coronavirus 229E | viral replication | MRC-5 | 0.05 µM | – | inhibition | 100%
C#CCN1C(=O)C(CC#C)(C(=O)OCC)Oc2ccccc21 (stereo not drawn) | HaCaT | cell growth or viability, CCK-8 | – | 50 µM, 72 h | – | inhibition | 0.11%
COc1ccccc1-c1ccncc1C(=O)Nc1nnc(OCc2ccc(Cl)cc2)s1 | DLD-1 BRCA2-/- | – | – | 0.125 µM, mean of 3 replicates | baseline: untreated | colony survival | 70.6%
C=CCN1C(=O)C(CC=C)(C(=O)OCC)Oc2cc(F)ccc21 (stereo not drawn) | L02 | cell growth or viability, CCK-8 | – | 25 µM, 72 h | – | inhibition | 0.19%
CC(=O)NCSC[C@H](NC(=O)[C@@H]1CCCN1C(=O)[C@H](C)NC(=O)[C@@H](NC(=O)CNC(=O)[C@@H](NC(=O)[C@H](Cc1c[nH]c2ccccc12)NC(=O)[C@H](C)NC(=O)CNC(=O)[C@H](CO)NC(=O)[C@H](C)NC(=O)[C@@H]1CCCN1C(=O)[C@H](Cc1c[nH]c2ccccc12)NC(=O)[C@H](C)NC(=O)[C@H](C)NC(=O)[C@@H](N)Cc1ccc(O)cc1)[C@@H](C)O)[C@@H](C)O)C(=O)N[C@@H](CO)C(=O)N[C@@H](C)C(=O)NCC(=O)N[C@H](C(=O)NCCOCCOCCOCCOCCOCCOCCOCCOCCOCCOCCOCCOCCC(=O)N[C@@H](CS)C(N)=O)[C@@H](C)O | HCC1171 lung carcinoma | cell binding, phage binding, item: output/input phage | – | 10 min, 37 °C | baseline: control phage | selectivity ratio | 35 ± 6.9
CC(C)(C)C(=O)OCOP(=O)(OCOC(=O)C(C)(C)C)C1CCCN(O)C1=O (stereo not drawn) | IGROV-1 | – | – | – | – | log LC50 | > -4 log M
O=C1NC2(CC2)COc2ncc(F)cc2[C@H]2COCCN2c2ccn3ncc1c3n2 | – | – | Sprague-Dawley rat, female, serum | oral, 5 mg/kg/day, end of recovery, 4-week subacute toxicity | – | serum urea | 2.99 ± 0.82 mmol/L
Cc1cc(C(=O)Nc2nc3cccc(C)c3n2[C@H]2CCCCN(C(=O)/C=C/CN(C)C)C2)ccn1 | Trypanosoma brucei | – | STIB795, mouse acute HAT model | oral, 25 mg/kg once daily for 4 days, day 0 | baseline: mice | survival | 100%
CC(C)C12OC1C1OC13C1(C)CCC4=C(COC4=O)C1CC1OC13C2OC(=O)CCCOC1OC(CO)C(O)C(O)C1O (stereo not drawn) | HUVEC | cell growth or viability, XTT | – | 47 h | – | IC50 | 3.98 µM
O=C(O)c1ccc(-c2nc(-c3ccccc3Cl)c3sccn23)cc1 | K562 | megakaryocyte differentiation, flow cytometry | – | 0.1 mM, 24 h | – | CD61-positive cells | 15.2% and 16.1%
COc1ccccc1-c1n[nH]c2nc(N[C@H]3CC[C@H](NS(=O)(=O)CC(C)C)CC3)ncc12 | – | bead binding, competition bead pull-down, item: LINJ.05.0550 | Leishmania donovani extract | 10 µM | baseline: vehicle | relative abundance | 0.67
CC(C)C[C@H](NC(=O)[C@H](CC(=O)O)NC(=O)CNC(=O)[C@@H](N)CCCNC(=N)N)C(=O)N[C@@H](C)C(=O)N[C@H](C(=O)N[C@@H](CC(C)C)C(=O)N[C@@H](CCCNC(=N)N)C(=O)N[C@@H](CCC(N)=O)C(=O)N[C@@H](CC(C)C)C(=O)N[C@@H](C)C(=O)N[C@@H](CCC(N)=O)C(=O)N[C@@H](CCC(=O)O)C(=O)N[C@@H](CC(=O)O)C(=O)NCC(=O)N[C@H](C(=O)N[C@H](C(=O)NCC(=O)N[C@H](C(=O)N[C@@H](CCCNC(=N)N)C(=O)NCCOCCOCCOCCOCCOCCOCCOCCOCCOCCOCCOCCOCCC(=O)N[C@@H](CS)C(N)=O)C(C)C)C(C)C)C(C)C)[C@@H](C)O | H460 lung large cell carcinoma | cell binding, phage binding, item: output/input phage | – | 10 min, 37 °C | baseline: control phage | selectivity ratio | 2 ± 0.45
